Published values collected from several papers.
A part holds a random share of what one study measured. Changes are numbered by the printed parent chain.
UniProt O14757, sequence (whole entry, looked up): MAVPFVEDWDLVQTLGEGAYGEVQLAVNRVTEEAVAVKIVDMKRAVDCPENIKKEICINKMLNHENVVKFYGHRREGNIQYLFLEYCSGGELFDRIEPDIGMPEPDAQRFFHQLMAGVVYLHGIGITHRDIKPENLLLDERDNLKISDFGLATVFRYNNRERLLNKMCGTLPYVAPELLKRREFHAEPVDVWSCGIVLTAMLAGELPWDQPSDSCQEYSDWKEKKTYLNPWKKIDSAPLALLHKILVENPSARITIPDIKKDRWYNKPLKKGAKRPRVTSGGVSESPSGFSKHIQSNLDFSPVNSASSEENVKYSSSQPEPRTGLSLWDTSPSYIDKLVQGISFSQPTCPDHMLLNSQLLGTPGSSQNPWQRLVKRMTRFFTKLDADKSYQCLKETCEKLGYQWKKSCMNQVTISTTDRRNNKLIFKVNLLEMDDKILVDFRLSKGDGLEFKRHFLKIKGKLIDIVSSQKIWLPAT
UniProt P29320, sequence (whole entry, looked up): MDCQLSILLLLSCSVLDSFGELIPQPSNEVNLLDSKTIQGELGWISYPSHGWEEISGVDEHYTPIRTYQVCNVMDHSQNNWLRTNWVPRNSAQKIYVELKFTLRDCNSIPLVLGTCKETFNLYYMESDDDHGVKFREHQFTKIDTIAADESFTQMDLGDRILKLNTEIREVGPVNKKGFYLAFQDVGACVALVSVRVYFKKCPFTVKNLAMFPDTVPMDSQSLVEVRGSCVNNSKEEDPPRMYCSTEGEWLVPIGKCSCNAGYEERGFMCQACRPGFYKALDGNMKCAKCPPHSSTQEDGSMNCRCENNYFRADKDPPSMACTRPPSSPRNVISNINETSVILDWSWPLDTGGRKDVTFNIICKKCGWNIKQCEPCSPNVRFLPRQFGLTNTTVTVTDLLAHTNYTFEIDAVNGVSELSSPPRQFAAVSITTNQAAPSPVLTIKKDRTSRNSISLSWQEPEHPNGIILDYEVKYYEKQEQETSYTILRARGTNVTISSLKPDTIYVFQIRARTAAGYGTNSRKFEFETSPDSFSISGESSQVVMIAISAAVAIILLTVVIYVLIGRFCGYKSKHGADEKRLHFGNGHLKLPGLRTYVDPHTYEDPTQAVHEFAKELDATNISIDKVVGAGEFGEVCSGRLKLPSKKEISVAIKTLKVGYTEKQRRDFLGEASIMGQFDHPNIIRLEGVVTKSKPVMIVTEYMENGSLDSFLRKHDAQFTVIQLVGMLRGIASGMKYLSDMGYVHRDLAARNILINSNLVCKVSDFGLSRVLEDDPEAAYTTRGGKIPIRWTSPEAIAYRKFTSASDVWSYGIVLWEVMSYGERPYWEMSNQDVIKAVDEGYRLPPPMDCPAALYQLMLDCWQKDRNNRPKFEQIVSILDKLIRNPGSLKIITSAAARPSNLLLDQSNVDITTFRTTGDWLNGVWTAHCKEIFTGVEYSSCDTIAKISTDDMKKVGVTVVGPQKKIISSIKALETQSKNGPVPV
UniProt P06239, sequence (whole entry, looked up): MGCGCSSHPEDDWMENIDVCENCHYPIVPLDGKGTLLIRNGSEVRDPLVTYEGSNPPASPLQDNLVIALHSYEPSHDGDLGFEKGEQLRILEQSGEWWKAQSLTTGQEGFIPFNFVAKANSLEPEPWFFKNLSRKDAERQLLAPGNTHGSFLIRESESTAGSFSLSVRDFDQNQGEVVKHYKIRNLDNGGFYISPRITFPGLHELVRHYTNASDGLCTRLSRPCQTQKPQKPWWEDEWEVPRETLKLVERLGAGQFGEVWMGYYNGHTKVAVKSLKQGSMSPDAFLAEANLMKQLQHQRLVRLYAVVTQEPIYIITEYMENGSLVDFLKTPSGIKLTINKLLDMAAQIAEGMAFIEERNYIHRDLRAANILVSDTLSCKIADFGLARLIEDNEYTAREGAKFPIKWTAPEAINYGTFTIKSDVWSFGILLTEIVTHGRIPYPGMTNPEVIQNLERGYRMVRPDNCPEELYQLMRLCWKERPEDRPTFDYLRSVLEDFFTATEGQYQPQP
UniProt P49841, sequence (whole entry, looked up): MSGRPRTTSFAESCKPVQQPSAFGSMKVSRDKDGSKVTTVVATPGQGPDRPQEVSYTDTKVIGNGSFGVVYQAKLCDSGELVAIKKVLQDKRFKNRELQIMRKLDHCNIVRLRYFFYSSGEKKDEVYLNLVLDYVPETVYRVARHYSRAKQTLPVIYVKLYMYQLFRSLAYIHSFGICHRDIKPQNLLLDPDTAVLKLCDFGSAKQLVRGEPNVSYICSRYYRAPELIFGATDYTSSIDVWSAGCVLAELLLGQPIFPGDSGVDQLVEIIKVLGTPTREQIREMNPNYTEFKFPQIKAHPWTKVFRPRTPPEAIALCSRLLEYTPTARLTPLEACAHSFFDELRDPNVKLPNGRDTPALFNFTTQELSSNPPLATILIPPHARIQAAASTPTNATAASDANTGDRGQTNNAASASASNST
UniProt Q9HC98, sequence (whole entry, looked up): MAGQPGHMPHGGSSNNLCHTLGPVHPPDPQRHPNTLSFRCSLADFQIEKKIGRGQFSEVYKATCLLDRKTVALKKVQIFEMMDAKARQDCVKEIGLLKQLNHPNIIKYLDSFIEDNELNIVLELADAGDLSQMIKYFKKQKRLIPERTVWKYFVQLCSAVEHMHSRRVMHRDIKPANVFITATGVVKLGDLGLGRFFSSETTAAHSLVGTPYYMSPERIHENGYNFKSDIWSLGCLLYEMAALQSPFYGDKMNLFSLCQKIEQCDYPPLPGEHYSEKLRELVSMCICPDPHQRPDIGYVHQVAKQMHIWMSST
UniProt P42336, sequence (whole entry, unmodified, looked up): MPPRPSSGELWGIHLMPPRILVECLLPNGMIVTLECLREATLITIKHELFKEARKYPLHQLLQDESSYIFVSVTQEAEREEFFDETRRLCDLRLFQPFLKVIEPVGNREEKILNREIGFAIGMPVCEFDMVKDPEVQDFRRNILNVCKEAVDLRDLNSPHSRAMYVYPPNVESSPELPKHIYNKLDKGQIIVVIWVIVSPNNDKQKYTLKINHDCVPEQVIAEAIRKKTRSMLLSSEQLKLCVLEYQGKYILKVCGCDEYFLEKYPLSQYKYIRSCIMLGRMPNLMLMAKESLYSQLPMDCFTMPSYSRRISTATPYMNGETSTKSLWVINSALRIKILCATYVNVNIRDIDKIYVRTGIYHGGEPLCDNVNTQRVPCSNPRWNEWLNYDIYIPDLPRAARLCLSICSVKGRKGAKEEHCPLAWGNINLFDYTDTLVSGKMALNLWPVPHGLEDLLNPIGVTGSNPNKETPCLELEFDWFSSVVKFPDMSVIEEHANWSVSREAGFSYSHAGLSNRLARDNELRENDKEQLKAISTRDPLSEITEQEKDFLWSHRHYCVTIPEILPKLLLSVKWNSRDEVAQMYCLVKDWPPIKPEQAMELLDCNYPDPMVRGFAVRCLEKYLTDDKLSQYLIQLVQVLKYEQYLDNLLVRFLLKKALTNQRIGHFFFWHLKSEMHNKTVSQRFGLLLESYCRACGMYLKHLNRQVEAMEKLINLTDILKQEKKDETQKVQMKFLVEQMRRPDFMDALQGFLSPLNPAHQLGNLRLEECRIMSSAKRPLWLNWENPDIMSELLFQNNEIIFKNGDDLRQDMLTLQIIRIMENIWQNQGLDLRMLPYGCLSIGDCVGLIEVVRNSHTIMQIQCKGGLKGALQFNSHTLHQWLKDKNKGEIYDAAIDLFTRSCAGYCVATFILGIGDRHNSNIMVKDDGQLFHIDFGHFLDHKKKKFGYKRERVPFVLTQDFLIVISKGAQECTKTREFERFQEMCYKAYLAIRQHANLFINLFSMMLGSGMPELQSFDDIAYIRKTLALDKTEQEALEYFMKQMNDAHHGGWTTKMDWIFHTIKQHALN
UniProt P11362, sequence (whole entry, looked up): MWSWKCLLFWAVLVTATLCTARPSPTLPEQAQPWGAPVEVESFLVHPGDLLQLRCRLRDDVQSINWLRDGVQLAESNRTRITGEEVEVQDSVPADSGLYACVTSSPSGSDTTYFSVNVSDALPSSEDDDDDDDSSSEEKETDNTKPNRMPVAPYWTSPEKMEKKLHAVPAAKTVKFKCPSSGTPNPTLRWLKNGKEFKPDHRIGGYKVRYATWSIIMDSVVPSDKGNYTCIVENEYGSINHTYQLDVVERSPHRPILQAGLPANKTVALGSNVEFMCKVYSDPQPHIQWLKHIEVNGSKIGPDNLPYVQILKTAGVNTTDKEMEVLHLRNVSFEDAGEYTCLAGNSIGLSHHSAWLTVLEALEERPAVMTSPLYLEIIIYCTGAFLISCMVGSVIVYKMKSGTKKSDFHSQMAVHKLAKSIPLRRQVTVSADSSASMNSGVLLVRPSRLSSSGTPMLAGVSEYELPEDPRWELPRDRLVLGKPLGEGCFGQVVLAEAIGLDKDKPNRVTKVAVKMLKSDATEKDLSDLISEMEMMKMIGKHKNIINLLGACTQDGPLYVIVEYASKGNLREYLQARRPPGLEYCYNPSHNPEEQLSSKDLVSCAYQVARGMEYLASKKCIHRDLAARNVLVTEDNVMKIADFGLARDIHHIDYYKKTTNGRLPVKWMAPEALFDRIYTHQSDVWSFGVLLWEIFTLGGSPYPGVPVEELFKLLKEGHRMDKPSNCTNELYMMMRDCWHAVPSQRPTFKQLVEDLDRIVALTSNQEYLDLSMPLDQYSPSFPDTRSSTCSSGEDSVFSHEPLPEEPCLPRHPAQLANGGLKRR
UniProt P78368, sequence (whole entry, looked up): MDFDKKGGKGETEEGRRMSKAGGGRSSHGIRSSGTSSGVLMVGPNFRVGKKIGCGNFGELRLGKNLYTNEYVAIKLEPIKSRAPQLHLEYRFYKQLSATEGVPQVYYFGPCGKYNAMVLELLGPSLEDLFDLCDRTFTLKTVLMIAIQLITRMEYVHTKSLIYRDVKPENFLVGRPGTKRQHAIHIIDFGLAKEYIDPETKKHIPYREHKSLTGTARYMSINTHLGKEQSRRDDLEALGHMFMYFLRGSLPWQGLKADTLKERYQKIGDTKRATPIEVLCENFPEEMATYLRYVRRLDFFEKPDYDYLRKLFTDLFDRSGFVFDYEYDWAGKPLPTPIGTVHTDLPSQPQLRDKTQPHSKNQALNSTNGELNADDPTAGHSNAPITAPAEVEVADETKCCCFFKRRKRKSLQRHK

Sample 1
Structure (SMILES): NC(=O)c1cccc(-c2cc(Nc3ccc(OC(F)(F)F)cc3)ncn2)c1
Read-out: enzyme activity
Action: inhibitor
Tested at: 0.5 µM
Baseline: control
target	remaining activity
Casein kinase I isoform gamma-2 (CSNK1G2, Homo sapiens, UniProt P78368)	89.5%
Fibroblast growth factor receptor 3 (FGFR3, Homo sapiens, UniProt P22607)	93.2%
Fibroblast growth factor receptor 1 (FGFR1, Homo sapiens, UniProt P11362)	96.9%
Serine/threonine-protein kinase TBK1 (TBK1, Homo sapiens, UniProt Q9UHD2)	92.4%
Activin receptor type-1B (ACVR1B, Homo sapiens, UniProt P36896)	103%
Ephrin type-A receptor 3 (EPHA3, Homo sapiens, UniProt P29320)	97.5%
Mitogen-activated protein kinase kinase kinase 14 (MAP3K14, Homo sapiens, UniProt Q99558)	103%
Dual specificity mitogen-activated protein kinase kinase 2 (MAP2K2, Homo sapiens, UniProt P36507)	92.5%
Tyrosine-protein kinase Lck (LCK, Homo sapiens, UniProt P06239)	93.3%
Mitogen-activated protein kinase kinase kinase 5 (MAP3K5, Homo sapiens, UniProt Q99683)	90.3%
MAP kinase-activated protein kinase 2 (MAPKAPK2, Homo sapiens, UniProt P49137)	97.3%
Serine/threonine-protein kinase Nek6 (NEK6, Homo sapiens, UniProt Q9HC98)	97.4%
Glycogen synthase kinase-3 beta (GSK3B, Homo sapiens, UniProt P49841)	110%

Sample 2
Target: NFE2L1, bZIP domain (human)
Method: DHFR protein complementation
Sample: yeast
Setting: single substitutions, most at no-binding floor
Baseline: wild-type JUN-FOS pair
Reading: higher = stronger binding
Parent: JUN, bZIP domain (human); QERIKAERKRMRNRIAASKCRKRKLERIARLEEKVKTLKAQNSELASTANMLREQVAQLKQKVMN; partner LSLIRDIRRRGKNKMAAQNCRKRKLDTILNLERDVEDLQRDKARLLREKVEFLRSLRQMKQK
Substitution	binding fitness
L52S	-1.48 natural log
T37G	-1.48 natural log
Q41R	-1.45 natural log
K34P	-1.46 natural log
A46L	-1.46 natural log
A57C	-1.53 natural log
R30A	-1.44 natural log
R30K	-1.56 natural log

Sample 3
Target: CCND2, cyclin fold, Cln2 fusion (human)
Method: yeast growth competition, sequencing
Sample: yeast
Setting: weak parent motif
Baseline: not given
Reading: higher = stronger binding
Parent: MASTL docking peptide (human); PMIAKNLMCELDE; partner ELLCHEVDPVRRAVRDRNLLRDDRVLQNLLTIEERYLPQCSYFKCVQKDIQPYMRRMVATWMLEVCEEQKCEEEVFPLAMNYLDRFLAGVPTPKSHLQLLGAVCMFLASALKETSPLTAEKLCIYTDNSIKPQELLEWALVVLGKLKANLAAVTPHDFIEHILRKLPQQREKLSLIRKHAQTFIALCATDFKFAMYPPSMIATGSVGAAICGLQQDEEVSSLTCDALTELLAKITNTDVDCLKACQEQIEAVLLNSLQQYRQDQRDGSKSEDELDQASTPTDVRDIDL
Substitution	normalised enrichment score
M2A	-0.141
L7T	-0.222
C9E	-0.0648
L7I	-0.0265
A4I	0.00592
M8F	-0.0518
N6H	-0.2
E10S	-0.252

Sample 4
SMILES: CC(C)(O)c1cncc(-c2nc3ccc(F)cc3n2C2CC2)c1
Read-out: cell-free assay
Method: competition with immobilised ligand
Tested at: 1 µM
target	remaining binding [%]
Receptor-type tyrosine-protein kinase FLT3 (FLT3, Homo sapiens, UniProt P36888, R834Q)	100
Serine/threonine-protein kinase Chk1 (CHEK1, Homo sapiens, UniProt O14757)	100
Phosphatidylinositol 4,5-bisphosphate 3-kinase catalytic subunit alpha isoform (PIK3CA, Homo sapiens, UniProt P42336, H1047L)	97
Cyclin-dependent kinase 7 (CDK7, Homo sapiens, UniProt P50613)	88
